Results collected from several papers.
Numbered parts are unrelated; each lists some results of a single study. Several values in a cell are separate wells, animals, samples, runs or records.
Chain of UniProt Q5BJF2 (whole entry, looked up): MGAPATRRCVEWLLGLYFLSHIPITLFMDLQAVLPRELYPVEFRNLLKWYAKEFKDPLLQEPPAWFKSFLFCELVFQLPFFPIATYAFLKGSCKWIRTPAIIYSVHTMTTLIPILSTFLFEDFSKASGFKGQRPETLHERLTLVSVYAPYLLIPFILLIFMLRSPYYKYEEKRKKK
Chain of UniProt P35348 (whole entry, looked up): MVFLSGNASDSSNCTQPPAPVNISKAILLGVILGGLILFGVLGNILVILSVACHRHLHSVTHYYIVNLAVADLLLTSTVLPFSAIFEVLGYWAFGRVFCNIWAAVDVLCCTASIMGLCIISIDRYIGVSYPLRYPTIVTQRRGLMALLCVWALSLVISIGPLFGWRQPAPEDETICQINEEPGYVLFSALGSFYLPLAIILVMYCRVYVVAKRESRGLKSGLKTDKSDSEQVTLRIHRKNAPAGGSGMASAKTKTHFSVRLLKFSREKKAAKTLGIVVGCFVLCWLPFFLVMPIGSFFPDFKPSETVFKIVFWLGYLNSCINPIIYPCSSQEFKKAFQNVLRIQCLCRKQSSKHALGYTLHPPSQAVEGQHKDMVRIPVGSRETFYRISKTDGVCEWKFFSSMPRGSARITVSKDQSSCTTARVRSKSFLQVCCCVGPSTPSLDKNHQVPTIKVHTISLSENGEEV
Chain of UniProt P21917 (whole entry, looked up): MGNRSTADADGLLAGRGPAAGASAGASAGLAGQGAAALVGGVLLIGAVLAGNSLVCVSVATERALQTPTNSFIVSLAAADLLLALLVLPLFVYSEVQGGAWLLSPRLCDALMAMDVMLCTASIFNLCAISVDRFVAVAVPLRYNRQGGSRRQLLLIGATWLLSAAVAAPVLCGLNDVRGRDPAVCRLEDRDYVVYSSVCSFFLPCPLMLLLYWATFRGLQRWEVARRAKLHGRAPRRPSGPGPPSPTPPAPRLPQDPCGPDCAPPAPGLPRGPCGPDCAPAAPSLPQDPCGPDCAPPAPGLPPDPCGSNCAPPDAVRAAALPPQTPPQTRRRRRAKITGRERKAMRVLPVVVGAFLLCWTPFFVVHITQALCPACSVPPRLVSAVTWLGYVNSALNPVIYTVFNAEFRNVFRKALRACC
Chain of UniProt P08588 (whole entry, looked up): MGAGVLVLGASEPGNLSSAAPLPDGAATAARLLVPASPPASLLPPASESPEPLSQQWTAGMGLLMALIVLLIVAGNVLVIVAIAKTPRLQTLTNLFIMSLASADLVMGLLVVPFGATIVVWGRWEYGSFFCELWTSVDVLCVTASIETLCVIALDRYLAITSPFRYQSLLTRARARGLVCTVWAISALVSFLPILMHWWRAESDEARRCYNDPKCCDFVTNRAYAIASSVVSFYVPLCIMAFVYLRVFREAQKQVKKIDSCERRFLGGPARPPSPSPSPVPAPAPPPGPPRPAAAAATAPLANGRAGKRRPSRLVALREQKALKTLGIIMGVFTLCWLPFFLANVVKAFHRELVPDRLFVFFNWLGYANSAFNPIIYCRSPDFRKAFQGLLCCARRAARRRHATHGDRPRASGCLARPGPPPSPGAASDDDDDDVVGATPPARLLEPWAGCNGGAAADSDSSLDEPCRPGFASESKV

Block 1 — effect on: enzyme activity; action: inhibitor; concentration: 77 µM; baseline: untreated; endpoint: remaining activity
Target: DNA polymerase theta, ATPase domain (POLQ, Homo sapiens, UniProt O75417)
Chain of UniProt O75417 (whole entry, unmodified, looked up): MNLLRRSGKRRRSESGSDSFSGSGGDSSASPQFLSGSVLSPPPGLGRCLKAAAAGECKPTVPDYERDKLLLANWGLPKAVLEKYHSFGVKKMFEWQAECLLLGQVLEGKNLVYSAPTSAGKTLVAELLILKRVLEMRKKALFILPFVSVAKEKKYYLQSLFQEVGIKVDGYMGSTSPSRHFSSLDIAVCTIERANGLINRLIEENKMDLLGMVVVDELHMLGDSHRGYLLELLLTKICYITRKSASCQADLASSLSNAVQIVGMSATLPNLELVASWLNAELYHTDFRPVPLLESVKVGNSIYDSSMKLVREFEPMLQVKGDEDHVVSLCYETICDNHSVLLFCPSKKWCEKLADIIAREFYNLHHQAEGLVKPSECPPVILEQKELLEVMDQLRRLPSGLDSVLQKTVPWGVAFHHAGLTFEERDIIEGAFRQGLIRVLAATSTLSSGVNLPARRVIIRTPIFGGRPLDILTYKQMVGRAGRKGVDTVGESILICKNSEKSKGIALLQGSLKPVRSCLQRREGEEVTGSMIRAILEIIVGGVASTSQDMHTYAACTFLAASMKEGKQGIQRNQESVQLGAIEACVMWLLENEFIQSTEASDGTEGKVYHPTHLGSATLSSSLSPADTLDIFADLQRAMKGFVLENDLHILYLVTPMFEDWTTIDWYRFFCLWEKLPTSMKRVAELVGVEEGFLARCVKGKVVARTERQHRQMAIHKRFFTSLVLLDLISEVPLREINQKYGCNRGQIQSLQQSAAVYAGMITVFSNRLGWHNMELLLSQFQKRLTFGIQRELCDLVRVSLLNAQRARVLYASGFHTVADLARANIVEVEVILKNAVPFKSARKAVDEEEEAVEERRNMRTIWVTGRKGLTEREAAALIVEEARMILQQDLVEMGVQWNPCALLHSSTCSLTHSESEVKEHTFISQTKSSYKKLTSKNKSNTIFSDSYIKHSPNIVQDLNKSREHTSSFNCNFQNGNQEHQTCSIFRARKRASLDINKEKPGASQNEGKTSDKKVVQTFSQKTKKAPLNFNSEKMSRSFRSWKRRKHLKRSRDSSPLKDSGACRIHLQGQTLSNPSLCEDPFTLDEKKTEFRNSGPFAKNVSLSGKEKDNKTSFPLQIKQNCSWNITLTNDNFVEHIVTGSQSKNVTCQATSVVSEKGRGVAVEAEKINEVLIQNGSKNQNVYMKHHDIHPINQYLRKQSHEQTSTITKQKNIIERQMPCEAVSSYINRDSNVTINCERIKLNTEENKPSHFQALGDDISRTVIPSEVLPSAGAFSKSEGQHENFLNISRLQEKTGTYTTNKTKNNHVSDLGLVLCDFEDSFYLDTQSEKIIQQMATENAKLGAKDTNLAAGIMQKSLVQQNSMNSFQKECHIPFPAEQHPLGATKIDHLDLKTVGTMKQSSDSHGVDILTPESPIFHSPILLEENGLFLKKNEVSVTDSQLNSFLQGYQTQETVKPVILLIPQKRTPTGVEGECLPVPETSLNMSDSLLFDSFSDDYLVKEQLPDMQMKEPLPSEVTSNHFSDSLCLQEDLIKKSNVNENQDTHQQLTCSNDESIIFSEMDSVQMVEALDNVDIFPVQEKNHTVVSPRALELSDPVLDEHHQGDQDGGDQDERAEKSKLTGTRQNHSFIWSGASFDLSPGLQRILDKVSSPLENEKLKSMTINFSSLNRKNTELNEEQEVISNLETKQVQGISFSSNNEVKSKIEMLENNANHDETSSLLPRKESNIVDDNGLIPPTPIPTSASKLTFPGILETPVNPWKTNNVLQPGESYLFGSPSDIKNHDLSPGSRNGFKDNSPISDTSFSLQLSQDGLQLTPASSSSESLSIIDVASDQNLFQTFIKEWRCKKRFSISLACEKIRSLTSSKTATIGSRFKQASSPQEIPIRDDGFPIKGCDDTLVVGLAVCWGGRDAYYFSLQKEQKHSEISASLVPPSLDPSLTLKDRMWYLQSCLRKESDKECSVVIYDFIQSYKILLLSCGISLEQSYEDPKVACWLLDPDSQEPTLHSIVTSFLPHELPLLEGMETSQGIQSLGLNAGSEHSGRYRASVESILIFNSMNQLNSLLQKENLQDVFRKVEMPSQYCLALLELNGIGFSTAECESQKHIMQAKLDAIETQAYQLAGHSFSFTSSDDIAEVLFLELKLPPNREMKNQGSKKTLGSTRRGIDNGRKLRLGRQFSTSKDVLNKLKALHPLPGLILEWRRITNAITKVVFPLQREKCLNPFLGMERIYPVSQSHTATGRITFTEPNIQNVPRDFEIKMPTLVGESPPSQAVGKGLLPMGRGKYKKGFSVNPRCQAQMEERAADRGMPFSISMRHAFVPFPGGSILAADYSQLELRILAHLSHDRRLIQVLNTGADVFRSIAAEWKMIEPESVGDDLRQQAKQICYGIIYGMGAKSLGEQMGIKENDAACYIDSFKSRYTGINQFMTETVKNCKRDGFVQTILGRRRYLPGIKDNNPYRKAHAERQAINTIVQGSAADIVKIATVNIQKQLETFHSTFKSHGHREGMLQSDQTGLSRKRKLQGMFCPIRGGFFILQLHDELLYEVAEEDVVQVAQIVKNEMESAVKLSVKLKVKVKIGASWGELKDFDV
Cn1cnc2c(F)c(Nc3ccc(Br)cc3F)c(C(=O)NOCCO)cc21: 98.7%
CC(=O)OCC(=O)[C@@]1(OC(C)=O)[C@@H](C)C[C@H]2[C@@H]3C[C@H](F)C4=CC(=O)C=C[C@]4(C)[C@@]3(F)[C@@H](O)C[C@@]21C: 103%
CCCC(C(=O)OCCN(CC)CC)(c1ccccc1)c1ccccc1: 101%
CC[n+]1c(/C=C/N(C)c2ccccc2)n(-c2ccccc2)c2ccc(-c3nc4ccccc4s3)cc21: 96.9%
C=C[C@](C)(O)CC[C@@H]1[C@@]2(C)CCCC(C)(C)[C@@H]2CC[C@@]1(C)O: 94.8%
O=[N+]([O-])c1cccc2c(Br)[nH]nc12: 104%
COc1nccc(-c2c(-c3ccc(F)cc3)ncn2[C@H]2CC[C@H](O)CC2)n1: 83.3%
Cc1cc(NC(=O)Nc2ccc3c(ccn3C)c2)sn1: 116%
C#C[C@]1(O)CC[C@H]2[C@@H]3CCC4=CCCC[C@@H]4[C@H]3CC[C@@]21C: 106%
O=[N+]([O-])c1ccc(CNc2nc(NCc3cccc(C(F)(F)F)c3)nc3nc[nH]c23)cc1: 90.1%
C[C@@H]1CN(CC(=O)Nc2ccc3c(c2)Cc2cccc(-c4cc(=O)cc(N5CCOCC5)o4)c2S3)C[C@H](C)O1: 92.5%
C[C@H]1O[C@@H](n2cc(F)c(=O)[nH]c2=O)[C@H](O)[C@@H]1O: 99.9% and 104%
CCC(CC)CC1(C(=O)Nc2ccccc2SC(=O)C(C)C)CCCCC1: 99.3%
O=C(O)[C@@H](O)[C@H](O)[C@H](O)[C@@H](O)C(=O)O: 93.8%
NS(=O)(=O)c1cc2c(cc1C(F)(F)F)NC(Cc1ccccc1)NS2(=O)=O (stereo not drawn): 99.1%
OC[C@@H](O)[C@@H](O)[C@H](O)[C@@H](O)CO: 92.4%
CC[C@H]1OC(=O)[C@H](C)[C@@H](O[C@H]2C[C@@](C)(OC)[C@@H](O)[C@H](C)O2)[C@H](C)[C@@H](O[C@@H]2O[C@H](C)C[C@H](N(C)C)[C@H]2O)[C@](C)(OC)C[C@@H](C)C(=O)[C@H](C)[C@@H](O)[C@]1(C)O: 103%
COC(=O)Nc1nc2ccc(SC(C)C)cc2[nH]1: 100%

Block 2 — effect on: enzyme activity; action: inhibitor; concentration: 0.5 µM; baseline: control; endpoint: remaining activity
Target: BDNF/NT-3 growth factors receptor (NTRK2, Homo sapiens, UniProt Q16620)
Chain of UniProt Q16620 (whole entry, looked up): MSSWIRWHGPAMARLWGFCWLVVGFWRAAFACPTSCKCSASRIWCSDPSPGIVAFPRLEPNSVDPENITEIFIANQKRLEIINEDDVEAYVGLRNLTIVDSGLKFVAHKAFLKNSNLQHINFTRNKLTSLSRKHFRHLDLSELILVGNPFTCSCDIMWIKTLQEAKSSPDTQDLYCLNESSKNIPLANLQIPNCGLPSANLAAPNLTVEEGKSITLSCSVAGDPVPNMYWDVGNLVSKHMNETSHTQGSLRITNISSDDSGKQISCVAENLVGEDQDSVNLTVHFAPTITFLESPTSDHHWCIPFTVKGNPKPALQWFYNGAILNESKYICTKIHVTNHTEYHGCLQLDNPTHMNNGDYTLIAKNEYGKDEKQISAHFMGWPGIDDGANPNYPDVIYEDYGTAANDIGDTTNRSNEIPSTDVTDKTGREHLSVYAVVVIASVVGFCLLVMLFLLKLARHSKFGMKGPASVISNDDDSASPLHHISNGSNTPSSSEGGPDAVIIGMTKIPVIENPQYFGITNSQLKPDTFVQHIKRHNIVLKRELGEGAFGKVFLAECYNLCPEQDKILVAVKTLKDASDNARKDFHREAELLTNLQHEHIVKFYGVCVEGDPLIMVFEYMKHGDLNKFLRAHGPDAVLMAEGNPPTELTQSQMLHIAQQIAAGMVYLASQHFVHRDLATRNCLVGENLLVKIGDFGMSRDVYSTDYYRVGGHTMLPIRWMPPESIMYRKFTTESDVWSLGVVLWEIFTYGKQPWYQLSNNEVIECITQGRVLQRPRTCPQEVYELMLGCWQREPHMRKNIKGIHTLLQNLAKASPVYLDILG
Clc1ccc(Nc2nnc(Cc3ccncc3)c3ccccc23)cc1: 102%
Nc1nc(Nc2ccc(S(N)(=O)=O)cc2)nn1C(=S)Nc1c(F)cccc1F: 11.8%
C[C@@H](N)[C@H]1CC[C@H](C(=O)Nc2ccncc2)CC1: 102%
CCN(CC)CCCCN1c2ccccc2Oc2ccc(Cl)cc21: 102%
CC(C)N(CCC(=O)c1ccc2ccccc2c1)Cc1ccccc1: 92.1%
O=c1c(-c2ccc(F)cc2)c(-c2ccncc2)[nH]n1-c1ccc(Cl)cc1: 88.5%
N#C/C(=C(/N)SC1C=CC=CC1)c1cccc(C(O)c2ccncc2)c1 (stereo not drawn): 104%
CCCCc1c(-c2ccc(O)cc2)[nH]c2nccnc12: 73.7%
O=C1c2ccccc2-c2nc3nnnn3nc21: 29.4%
CC(C)(C)c1nc2c3cc[nH]c(=O)c3c3cc(F)ccc3c2[nH]1: 16.1%
O=Nc1c(-c2c(O)[nH]c3ccccc23)[nH]c2ccccc12: 4.08%
O=C(c1ccccc1)c1ccc(N2CCOCC2)cc1O: 92.7%
c1cc(-c2cnn3cc(-c4ccc(OCCN5CCCCC5)cc4)cnc23)ccn1: 26.1%
O=C1NC(=O)/C(=C/c2ccc3c(c2)OC(F)(F)O3)S1: 91.9%
N#CC(c1ccnc(NCCc2cccnc2)n1)c1nc2ccccc2s1 (stereo not drawn): 93.2%
NC(=O)c1cccc(-c2cc(Nc3ccc(OC(F)(F)F)cc3)ncn2)c1: 96%
FC(F)(F)c1ccc(/C=C/c2nc(COc3ccc(CCCCn4ccnn4)cc3)co2)cc1: 102%
NC(=O)c1ccc(-c2nc(-c3ccc4c(c3)OCCO4)c(-c3ccccn3)[nH]2)cc1: 103%
CC(C)n1cnc2c(Nc3cccc(Cl)c3)nc(NCCO)nc21: 66.1%
COc1cc2c(Nc3ccc(Br)cc3F)ncnc2cc1OCC1CCN(C)CC1: 93.2%
O=C(O)/C=C/c1cc(Br)c(Br)c(Br)c1Br: 98.2%
CNc1cc2c(Nc3cccc(Br)c3)ncnc2cn1: 94.3%

Block 3 — cell line: mouse MPNST tumor cells; method: high-content immunofluorescence imaging; refers to: nuclear SOX9; concentration: 10 µM; time: 12 h; setting: mean of 2 replicates; baseline: DMSO control; direction: higher = more nuclear SOX9; endpoint: nuclear SOX9 intensity
COc1cc2nc(N(C)CCCNC(=O)C3CCCO3)nc(N)c2cc1OC (stereo not drawn): 94.5 % of DMSO
CCN1C(=CC(C)=O)Sc2ccc(OC)cc21: 80.5 % of DMSO
CC(C)C(=O)Nc1ccc([N+](=O)[O-])c(C(F)(F)F)c1: 106 % of DMSO and 98.4 % of DMSO and 99.8 % of DMSO
CCCCC1=NC2(CCCC2)C(=O)N1Cc1ccc(-c2ccccc2-c2nnn[nH]2)cc1: 101 % of DMSO and 102 % of DMSO
O=C(NNc1nc2cc(F)ccc2n2cccc12)c1cnccn1: 153 % of DMSO
O=C(NCc1ccccn1)Nc1nnc(-c2ccco2)o1: 92.1 % of DMSO
CCc1cc(-c2n[nH]c(C)c2-c2ccc3c(c2)OCCO3)c(O)cc1O: 49.1 % of DMSO
Cc1c(O)cccc1C(=O)N[C@@H](CSc1ccccc1)[C@H](O)CN1C[C@H]2CCCC[C@H]2C[C@H]1C(=O)NC(C)(C)C: 128 % of DMSO
O=C1Nc2ccccc2C12OCC1(CO2)COC2(OC1)C(=O)Nc1ccccc12 (stereo not drawn): 114 % of DMSO
Cn1cccc1/C=C1\C(=O)NC(=O)c2ccccc21: 114 % of DMSO
Cc1cn2c(N)c(Cl)cc(C(=O)NCC3CCN(CC(C)C)CC3)c2n1: 105 % of DMSO
CC1CCc2c(cc(Br)c(F)c2Br)N1C=O (stereo not drawn): 100 % of DMSO
COc1ccccc1C(=O)Nc1cc2c(cc1N1CCCC1)n(C)c(=O)n2C: 128 % of DMSO and 134 % of DMSO
C[C@@H]1CCN(C(=O)CC#N)C[C@@H]1N(C)c1ncnc2[nH]ccc12: 99.6 % of DMSO
CCc1ccc(NC(=O)Nc2c[nH]c3ccccc23)cc1: 146 % of DMSO
COc1ccc(Br)cc1S(=O)(=O)NC(=O)/C=C/c1ccccc1Cc1ccc2ccccc2c1: 99.2 % of DMSO
O=C(Nc1cccnn1)N1CCC(=Cc2cccc(Oc3ccc(C(F)(F)F)cn3)c2)CC1: 142 % of DMSO
S=c1nc[nH]c2nc[nH]c12: 92 % of DMSO
CN1CCN2c3ccccc3Cc3ccccc3C2C1 (stereo not drawn): 83.9 % of DMSO
CCN(CC)S(=O)(=O)Nc1cccc(-c2ccc3c(NC(=O)C4CC4)n[nH]c3c2)c1: 182 % of DMSO

Block 4 — effect on: binding; method: radioligand binding; concentration: 10 µM; endpoint: inhibition
SMILES: CC(=O)C1=C(C)N(c2cccc(C(F)(F)F)c2)C(=O)N[C@@H]1c1ccc(C#N)nc1
D(2) dopamine receptor (DRD2, Homo sapiens, UniProt P14416): 0.569%
D(4) dopamine receptor (DRD4, Homo sapiens, UniProt P21917): 15.9%
5-hydroxytryptamine receptor 6 (HTR6, Homo sapiens, UniProt P50406): -6.02%
Alpha-2A adrenergic receptor (ADRA2A, Homo sapiens, UniProt P08913): 10.5%
Muscarinic acetylcholine receptor M5 (CHRM5, Homo sapiens, UniProt P08912): -6.78%
Beta-1 adrenergic receptor (ADRB1, Homo sapiens, UniProt P08588): 60%
Beta-2 adrenergic receptor (ADRB2, Homo sapiens, UniProt P07550): 24.3%
Alpha-1A adrenergic receptor (ADRA1A, Homo sapiens, UniProt P35348): -14.2%
Sigma non-opioid intracellular receptor 1 (SIGMAR1, Homo sapiens, UniProt Q99720): -18.6%
D(3) dopamine receptor (DRD3, Homo sapiens, UniProt P35462): -17.7%
5-hydroxytryptamine receptor 2B (HTR2B, Homo sapiens, UniProt P41595): 6.06%
Sigma intracellular receptor 2 (TMEM97, Homo sapiens, UniProt Q5BJF2): 35.9%

A few entries again (block 3):
CCc1ccc(NC(=O)Nc2c[nH]c3ccccc23)cc1: 146 % of DMSO
COc1ccc(Br)cc1S(=O)(=O)NC(=O)/C=C/c1ccccc1Cc1ccc2ccccc2c1: 99.2 % of DMSO
O=C(Nc1cccnn1)N1CCC(=Cc2cccc(Oc3ccc(C(F)(F)F)cn3)c2)CC1: 142 % of DMSO
S=c1nc[nH]c2nc[nH]c12: 92 % of DMSO
CN1CCN2c3ccccc3Cc3ccccc3C2C1 (stereo not drawn): 83.9 % of DMSO
